# Experimental data of several laboratories.
# Every numbered part comes from another study and shows a few of its results, in no order. Positions count from the first letter of the parent shown.

# Set 1
# Target: Hepatocyte nuclear factor 3-alpha (Foxa1, Mus musculus, UniProt P35582, residues 1-468, full length assumed)
# Chain of UniProt P35582 (whole entry, looked up): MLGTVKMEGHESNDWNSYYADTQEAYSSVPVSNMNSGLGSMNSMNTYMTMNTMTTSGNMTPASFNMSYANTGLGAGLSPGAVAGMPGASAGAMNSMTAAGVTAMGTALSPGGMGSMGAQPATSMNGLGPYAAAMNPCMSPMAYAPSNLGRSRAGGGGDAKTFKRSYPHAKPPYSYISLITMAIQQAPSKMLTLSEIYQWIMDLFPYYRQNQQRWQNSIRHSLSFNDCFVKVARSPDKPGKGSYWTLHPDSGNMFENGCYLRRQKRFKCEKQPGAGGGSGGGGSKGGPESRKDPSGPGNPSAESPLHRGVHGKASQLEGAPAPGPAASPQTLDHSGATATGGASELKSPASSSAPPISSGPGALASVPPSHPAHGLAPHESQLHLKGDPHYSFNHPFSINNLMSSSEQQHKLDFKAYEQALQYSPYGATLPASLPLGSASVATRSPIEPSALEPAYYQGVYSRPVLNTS
# Technique: EMSA with sequencing
# Molecule type: double-stranded DNA, one strand shown
# Matrix: in vitro
# Concentration: 10 and 20 nM
# Setting: whole designed probe, mean of two concentrations, ends assumed
# Baseline: negative control set to 0
# Reading: higher = stronger binding
# Constant ends, left off below: GTGAGCGGTGCCCATTGATGGGGAAC … TTTCACTGGGATCGTGGGGAC
Strand,normalised bound fraction
TCAGAGCTGTCAGCCTACTTGGCAGGCGACCTGACACTTTAGCTGAGTCACATTTAAAAACAATTTCCTAAGAAGGGTGAGGTCACCATGAGAGCAAACACCACCAGGCCACAGCTTAATTACTAAGTTGCCAACCTTTAGCTTTCCCCAGAGCCCCCTTATAAAACATTCAGATATCTACTGCCCAACAGTG,0.0268 ratio
ATCTTCCCCCTCTTCCTTGCCCCACCAGCTCACCTACGGGGGTTATTTGCAGATAGGAAAATAAATAAAGCCGGCATTCGTTAACGCAGTTCACGCGCATACTGCTGTTTGCTCTGGATCTAACATGGTCCTTTGGCGAGGCGTGGCTCCGGGAGAGCAAAGCACCGTGTCAGGGCCATGATCCGGGCTCGCC,0.341 ratio
TTAAGAAAAGTTGAAACAGGAATTGCTTGATAATCTTGAAAATATGCATGTATGTATGTTTGTTTAATGACTAAATGTATACTATTTGAGAAAGTAAATAAGGAGGGTAGGGGGCAGAAGCCAGATTCAGATTTTTGTGTGATGAAGAATGAATAAATGAATGTTTAGGAGTTGAGGAAATGGAAGAAGTGTT,0.497 ratio
TTTCAGTGTTCACATTTCCCGTTAAGAAAAAAAAACTAATTTTTTACATGCATCATCATTAATTAGTGTAGTTTAATTAGTGTTTAGCTAAAAAGTAAACAGGGACCTAAATTAAGTTTGTTAGACAGTGCTAGAATTTACTGGGCTCCAGTAAATTTCACCTGGGTTTCAGGCAGGAAGAAAGTAAGGATGT,0.243 ratio
ATCCACGAACCTGGCCCTGTCTGGTAACCACAGTGAACCATCGCAAGATACAGCACTATGTGCCCAGTTGGGCTGGTAATGTCACACAAATGTGTCAACACTGGCACATCCTCAGGGACACGGAAGTGTACTTGTTTTTGGAGAGGGACTAGACCTTCATCCTTGAGGTGAAGAAGATTTTCTCTCCAGGGTG,0.0654 ratio

# Set 2
# Target: ABI1, truncated, D143A, DHFR fusion (Arabidopsis thaliana)
# Technique: DHFR PCA, deep sequencing
# Matrix: yeast
# Setting: methotrexate growth selection, single substitutions
# Added: (+)-ABA 200 µM
# Baseline: wild-type fitted maximum
# Reading: higher = stronger binding
# Starting sequence: PYL1, truncated, DHFR fusion (Arabidopsis thaliana); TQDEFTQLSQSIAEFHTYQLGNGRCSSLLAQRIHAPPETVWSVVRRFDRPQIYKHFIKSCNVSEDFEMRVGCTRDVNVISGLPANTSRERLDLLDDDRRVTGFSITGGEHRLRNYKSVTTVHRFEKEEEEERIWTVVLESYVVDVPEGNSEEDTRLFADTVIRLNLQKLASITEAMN
Substitution,relative binding score [%]
M68P,96.1
T73V,108
E151P,96.1
G108L,23.5
W41C,18.1
L112C,58.8
N165D,36
R24E,98.8
I57S,12
H110V,9.01
N22G,99.9
M68K,76.3
R90I,85.5
V100G,26.7
Q10K,96.8
D75I,105
F5K,91.2
R132I,107
D144G,47.2
S59M,79.5
G102C,63.2
V145K,65.6

# Set 3
# Target: CCNF, cyclin fold, Cln2 fusion (human)
# Technique: yeast growth competition, sequencing
# Matrix: yeast
# Setting: strong parent motif
# Baseline: not given
# Reading: higher = stronger binding
# Starting sequence: PKMYT1 docking peptide (human); SFEPRNLLSLFED
Substitution,normalised enrichment score
SFEPRNLLSLMED [F11M],-0.335
SFEPRHLLSLFED [N6H],0.174
SVEPRNLLSLFED [F2V],0.839
SFEPRNLLPLFED [S9P],2.5
SREPRNLLSLFED [F2R],0.94
SFEPRYLLSLFED [N6Y],-0.917
SFEPQNLLSLFED [R5Q],0.0379
SFEPRNLLSLFFD [E12F],0.841
SFEPRNLLSLFLD [E12L],0.615
SFEPRNLLSLFKD [E12K],0.391
FFEPRNLLSLFED [S1F],2.36
SFEPRNQLSLFED [L7Q],-1.38
SGEPRNLLSLFED [F2G],0.327
SFEPRNLLSLFDD [E12D],0.347
SFEPRNLLSLEED [F11E],-1.93
SFEPRNLLSLFEM [D13M],2.1
SFEPRNLCSLFED [L8C],-0.0812

# Set 4
# Target: Sal-like protein 4, full length isoform A (SALL4, Homo sapiens, UniProt Q9UJQ4, residues 1-1053)
# Chain of UniProt Q9UJQ4 (whole entry, looked up): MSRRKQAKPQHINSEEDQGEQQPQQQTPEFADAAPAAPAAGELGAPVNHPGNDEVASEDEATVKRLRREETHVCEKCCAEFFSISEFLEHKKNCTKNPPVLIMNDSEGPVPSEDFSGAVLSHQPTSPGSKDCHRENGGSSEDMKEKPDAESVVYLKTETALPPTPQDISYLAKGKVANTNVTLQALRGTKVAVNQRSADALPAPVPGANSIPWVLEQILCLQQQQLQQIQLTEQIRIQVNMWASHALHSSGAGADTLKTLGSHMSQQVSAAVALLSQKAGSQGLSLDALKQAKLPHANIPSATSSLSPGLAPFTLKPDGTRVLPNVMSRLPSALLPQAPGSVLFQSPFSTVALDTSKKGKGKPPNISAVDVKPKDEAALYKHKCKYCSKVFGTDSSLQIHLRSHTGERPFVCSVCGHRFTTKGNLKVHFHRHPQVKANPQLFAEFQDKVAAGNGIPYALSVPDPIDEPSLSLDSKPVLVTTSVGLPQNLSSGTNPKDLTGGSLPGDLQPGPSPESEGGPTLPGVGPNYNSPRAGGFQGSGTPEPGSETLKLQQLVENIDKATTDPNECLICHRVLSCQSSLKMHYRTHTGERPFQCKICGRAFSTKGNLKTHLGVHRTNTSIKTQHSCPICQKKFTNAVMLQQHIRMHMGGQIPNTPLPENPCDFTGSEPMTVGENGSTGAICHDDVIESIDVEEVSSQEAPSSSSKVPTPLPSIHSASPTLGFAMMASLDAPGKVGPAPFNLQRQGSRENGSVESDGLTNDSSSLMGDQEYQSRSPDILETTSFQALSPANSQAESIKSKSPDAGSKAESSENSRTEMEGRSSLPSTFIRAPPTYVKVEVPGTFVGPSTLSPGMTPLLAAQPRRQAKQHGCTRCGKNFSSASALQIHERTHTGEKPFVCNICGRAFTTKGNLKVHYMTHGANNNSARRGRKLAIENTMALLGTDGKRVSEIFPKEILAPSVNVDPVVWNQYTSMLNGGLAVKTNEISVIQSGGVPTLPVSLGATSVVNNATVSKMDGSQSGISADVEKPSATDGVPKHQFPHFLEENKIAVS
# Technique: universal PBM
# Molecule type: double-stranded DNA, one strand shown
# Matrix: in vitro
# Concentration: 600 nM
# Setting: 8-mer, flanks averaged, mean of replicates
# Reading: higher = stronger binding
Strand,E-score
GGAAAGAA,-0.0542
ACATTCTC,0.124
AATGTGAT,0.225
CCCTACCC,-0.192
CGAGGAAC,-0.185
CATCCAGC,-0.0458
GACGCTGA,-0.111
TGCCCTAA,-0.0439
GCCGTCAC,-0.124
CAACTACG,0.113
CCCCACTC,-0.103
GAAATAAC,0.23
ACAACAGA,0.0648
ATCCTGAA,0.127
GGCAGGCA,-0.212
CTCGATAA,0.138
ATCGTAGC,0.0551
CTTCGCCA,-0.161

# Set 5
# Target: ATF5, bZIP domain (human)
# Technique: DHFR protein complementation
# Matrix: yeast
# Setting: single substitutions, most at no-binding floor
# Baseline: wild-type JUN-FOS pair
# Reading: higher = stronger binding
# Starting sequence: JUN, bZIP domain (human); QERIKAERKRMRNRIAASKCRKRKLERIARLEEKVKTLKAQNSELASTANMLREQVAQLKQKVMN; partner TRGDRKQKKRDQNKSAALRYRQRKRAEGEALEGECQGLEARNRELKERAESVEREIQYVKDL
Substitution,binding fitness [natural log]
S47R,-1.33
E32Q,-1.56
L52C,-1.51
S43F,-1.43
E32W,-1.51
L45G,-1.47
V56M,-1.38
L52H,-1.44
V35W,-1.49
K39P,-1.48
I28C,-1.5
K36S,-1.61
A29L,-1.53
M51C,-0.927
T37F,-1.31

# Repeated from above (set 5):
Substitution,binding fitness [natural log]
L52H,-1.44
L45G,-1.47
K36S,-1.61
A29L,-1.53
K39P,-1.48
M51C,-0.927
S47R,-1.33
